Results pooled from the literature.
A part holds a random share of what one study measured. Positions count from the first letter of the parent shown.
UniProt Q9Y5N1, sequence (whole entry, looked up): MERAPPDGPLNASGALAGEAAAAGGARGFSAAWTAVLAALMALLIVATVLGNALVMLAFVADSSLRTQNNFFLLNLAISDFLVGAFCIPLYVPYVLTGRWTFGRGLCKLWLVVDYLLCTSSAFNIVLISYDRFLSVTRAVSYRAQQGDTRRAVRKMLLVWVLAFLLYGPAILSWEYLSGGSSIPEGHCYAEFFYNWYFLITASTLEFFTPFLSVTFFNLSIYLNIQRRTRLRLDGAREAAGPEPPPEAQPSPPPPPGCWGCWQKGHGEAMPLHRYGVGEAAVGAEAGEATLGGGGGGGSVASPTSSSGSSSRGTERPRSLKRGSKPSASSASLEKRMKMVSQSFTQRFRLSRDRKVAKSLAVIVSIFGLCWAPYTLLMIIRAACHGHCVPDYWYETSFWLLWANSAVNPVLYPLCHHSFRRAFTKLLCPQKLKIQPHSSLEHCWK

Sample 1 — target: CCNB1, cyclin fold, Cln2 fusion (human); technique: yeast growth competition, sequencing; medium: yeast; notes: strong parent motif; relative to: not given; reading: higher = stronger binding; quantity: normalised enrichment score
Starting sequence: viral docking peptide; YKVKRRLVFGADD; partner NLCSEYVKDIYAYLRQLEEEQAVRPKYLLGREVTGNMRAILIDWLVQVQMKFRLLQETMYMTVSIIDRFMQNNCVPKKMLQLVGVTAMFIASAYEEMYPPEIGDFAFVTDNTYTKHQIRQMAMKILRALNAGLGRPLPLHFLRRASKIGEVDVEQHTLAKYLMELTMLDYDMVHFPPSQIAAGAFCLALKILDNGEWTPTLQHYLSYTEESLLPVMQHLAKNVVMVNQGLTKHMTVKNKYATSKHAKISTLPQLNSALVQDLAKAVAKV
YKVKRFLVFGADD [R6F]: -0.109
YKVKRRLVFGAGD [D12G]: 2.71
YKVKRRLVFGAND [D12N]: 2.8
YKVKRRLVFGQDD [A11Q]: 3.36
YKVKRRLVFVADD [G10V]: 3.04
YKVWRRLVFGADD [K4W]: 0.879
YKVKRRLVFCADD [G10C]: 3.24
YKVKPRLVFGADD [R5P]: -0.112
YKVKRRLVFGLDD [A11L]: 4.06
YKVKRLLVFGADD [R6L]: 0.647
YKVKRRLEFGADD [V8E]: 4.62
YKVKRREVFGADD [L7E]: 0.538
YKVKRRLVFGAPD [D12P]: 2.63
YKVVRRLVFGADD [K4V]: 4.73
YKVKRRLVFGWDD [A11W]: 3.15
YKVKRRLVFGAMD [D12M]: 2.46
YKVKRRLVWGADD [F9W]: 1.45
YKVKRQLVFGADD [R6Q]: 2.64
YKVKNRLVFGADD [R5N]: -0.321
YKVKRRLVFGMDD [A11M]: 3.64
YIVKRRLVFGADD [K2I]: 3.62
YKVKRRLGFGADD [V8G]: 0.956
YKVKYRLVFGADD [R5Y]: 0.289
YKVKRRLVFGAKD [D12K]: 1.13
YKVKRRLVFGASD [D12S]: 2.45

Sample 2 — technique: aptamer microarray, sandwich; form: DNA with 2'F-ANA; medium: in vitro; concentration: 200 nM; with: Cy3 exosite-II aptamer, 400 nM; reading: higher = stronger binding; quantity: mean fluorescence intensity; strand: GGTTGGTGTGGTTGG
Target: Prothrombin, mature alpha-thrombin (F2, Homo sapiens, UniProt P00734)
Notes: whole 15-mer aptamer, many near background
2'F-ANA at 2 3 5 7 11 13: 79.1 a.u.
2'F-ANA at 2 3 5 6 7 8 10 11 14 15: 86.8 a.u.
2'F-ANA at 3 7 8 10: 667 a.u.
2'F-ANA at 2 3 4 5 6 10 14 15: 48.5 a.u.
2'F-ANA at 1 2 3 5 6 7 8 11 15: 55.2 a.u.
2'F-ANA at 1 3 4 5 6 8 10 11 14: 50.4 a.u.
2'F-ANA at 2 6 7 12 13 14 15: 166 a.u.
2'F-ANA at 1 2 3 5 7 8 10 13 14: 49.5 a.u.

Sample 3 — target: ATF1, bZIP domain (human); technique: DHFR protein complementation; medium: yeast; relative to: wild-type JUN-FOS pair; reading: higher = stronger binding; quantity: binding fitness
Notes: single substitutions, most at no-binding floor
Starting sequence: JUN, bZIP domain (human); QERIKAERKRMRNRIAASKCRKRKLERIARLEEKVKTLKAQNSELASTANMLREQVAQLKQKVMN; partner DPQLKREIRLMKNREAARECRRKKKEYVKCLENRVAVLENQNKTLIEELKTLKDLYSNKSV
A40P: -1.56 natural log
N42Y: -1.42 natural log
Q55W: -1.56 natural log
E32A: -1.48 natural log
A46S: -1.51 natural log
A46L: -1.45 natural log
E44A: -1.49 natural log
L45T: -1.54 natural log

Sample 4 — technique: protein-binding microarray; form: double-stranded DNA, one strand shown; medium: in vitro; concentration: 2200 nM top; notes: 60-bp whole probe; with: salmon DNA 0.4 mg/ml; relative to: random background probes; reading: higher = stronger binding; quantity: fitted relative affinity; constant ends, left off below: GCCTAGCAC … GTCTTGATTCGCTTGACGCTGCTG
Target: Interferon regulatory factor 7, full length, phosphomimetic (IRF7, Homo sapiens, UniProt Q92985, residues 1-503, S471D/S472D/S475D/S476D/S477D/S483D/S484D/S487D)
Construct (chain): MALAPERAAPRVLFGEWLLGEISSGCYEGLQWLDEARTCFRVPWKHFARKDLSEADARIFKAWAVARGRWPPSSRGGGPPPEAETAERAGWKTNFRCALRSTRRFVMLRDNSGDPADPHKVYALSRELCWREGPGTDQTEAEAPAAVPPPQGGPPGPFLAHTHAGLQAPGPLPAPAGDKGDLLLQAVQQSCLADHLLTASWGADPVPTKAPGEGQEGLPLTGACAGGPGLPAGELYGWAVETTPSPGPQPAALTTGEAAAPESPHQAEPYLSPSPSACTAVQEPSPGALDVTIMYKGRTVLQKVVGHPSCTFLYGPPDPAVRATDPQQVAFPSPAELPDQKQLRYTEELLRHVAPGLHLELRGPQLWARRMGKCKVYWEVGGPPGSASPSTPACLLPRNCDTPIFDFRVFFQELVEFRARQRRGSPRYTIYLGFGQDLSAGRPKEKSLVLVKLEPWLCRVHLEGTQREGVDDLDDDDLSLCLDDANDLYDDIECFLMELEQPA
GACGGTTTGGACTATCGGGACGTGCTA: 0.379 z-score
GACTATTTCGGGACTGGAGACGTGCTA: 1.06 z-score
GACGGTCTCGGTCTCGGGATGTGCTAG: -0.0413 z-score
TCAGTTTGCCTCCTTCAGACTGTGCTA: 2.33 z-score
TCAAACTTGTATTTGTCACTGTGCTAG: 0.441 z-score
GAGGGACTGGGTTTCGGGACGTGCTAG: 1.13 z-score
GACGGTCTCCTACTGCCGACGTGCTAG: 0.392 z-score
GACGGTTTCGACACTGGGGAAGTGCTA: 2.7 z-score

Other studies, line by line
CNC(=O)c1cc(C(=O)NC2CC2)cn(Cc2ccccc2)c1=O — inhibition (Histamine H3 receptor (HRH3, Homo sapiens, UniProt Q9Y5N1); binding, radioligand binding; 10 µM): -8.16%

Excerpt of the above (sample 3):
A40P: -1.56 natural log
N42Y: -1.42 natural log
Q55W: -1.56 natural log
E32A: -1.48 natural log
A46S: -1.51 natural log
A46L: -1.45 natural log
E44A: -1.49 natural log
L45T: -1.54 natural log
